Measurements collected from several papers.
Each numbered part is a random draw from the data of one study; scales do not carry over between parts. Substitutions count along the parent as printed.

Study 1
Target: TAR DNA-binding protein 43, full length, His tag (TARDBP, Homo sapiens, UniProt Q13148, residues 1-414)
Method: RNA Bind-n-Seq
Form: RNA
Sample: in vitro
Tested at: 20 nM
Setting: 6-mer, flanks averaged, single round
Added: 150 mM LiCl
Baseline: input library
Direction: higher = stronger binding
For `UUAUAU`, “6-mer enrichment (R)” read 1.11.
Under “6-mer enrichment (R)”, `UCUGUC` is recorded as 0.908.
`AUGUCU`: “6-mer enrichment (R)” 0.967.
Under “6-mer enrichment (R)”, `ACAUUG` is recorded as 0.887.
For `UCACAC`, “6-mer enrichment (R)” read 0.857.
For `CAGUAU`, “6-mer enrichment (R)” read 0.945.
`CUAUAU`: “6-mer enrichment (R)” 0.949.
`UAAUUG` — result for “6-mer enrichment (R)”: 1.02.

Study 2
Target: tungstate, free oxyanion
Method: microfluidic competitive inhibition
Sample: in vitro, cell-free expressed
Tested at: not given
Setting: derived from inhibition constants, unchanged parent 2230 nM
Direction: lower = stronger binding
Parent: PafA, mature enzyme, eGFP fusion (Elizabethkingia meningoseptica, UniProt Q9KJX5); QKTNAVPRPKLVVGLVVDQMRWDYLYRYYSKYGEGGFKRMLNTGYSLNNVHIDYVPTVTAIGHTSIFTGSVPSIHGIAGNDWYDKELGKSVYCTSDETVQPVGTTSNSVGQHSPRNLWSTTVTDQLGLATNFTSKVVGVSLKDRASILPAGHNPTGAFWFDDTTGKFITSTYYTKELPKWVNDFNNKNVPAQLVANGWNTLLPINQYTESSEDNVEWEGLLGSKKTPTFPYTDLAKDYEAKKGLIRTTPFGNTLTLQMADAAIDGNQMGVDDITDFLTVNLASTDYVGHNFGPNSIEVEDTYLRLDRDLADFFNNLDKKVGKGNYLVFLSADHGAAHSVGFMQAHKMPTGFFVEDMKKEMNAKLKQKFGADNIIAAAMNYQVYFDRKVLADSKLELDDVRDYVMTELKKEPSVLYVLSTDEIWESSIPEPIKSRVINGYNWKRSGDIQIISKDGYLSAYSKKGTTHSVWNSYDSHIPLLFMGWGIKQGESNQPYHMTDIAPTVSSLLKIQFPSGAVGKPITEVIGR
Under “oxyanion analog dissociation constant”, `K408V` is recorded as 3040 nM.
`Y172V` — result for “oxyanion analog dissociation constant”: 1980 nM.
Under “oxyanion analog dissociation constant”, `T64G` is recorded as 4120 nM.

Study 3
Target: Ras GTPase-activating protein-binding protein 1, RRM domain (G3BP1, Homo sapiens, UniProt Q13283)
Chain of UniProt Q13283 (whole entry, looked up): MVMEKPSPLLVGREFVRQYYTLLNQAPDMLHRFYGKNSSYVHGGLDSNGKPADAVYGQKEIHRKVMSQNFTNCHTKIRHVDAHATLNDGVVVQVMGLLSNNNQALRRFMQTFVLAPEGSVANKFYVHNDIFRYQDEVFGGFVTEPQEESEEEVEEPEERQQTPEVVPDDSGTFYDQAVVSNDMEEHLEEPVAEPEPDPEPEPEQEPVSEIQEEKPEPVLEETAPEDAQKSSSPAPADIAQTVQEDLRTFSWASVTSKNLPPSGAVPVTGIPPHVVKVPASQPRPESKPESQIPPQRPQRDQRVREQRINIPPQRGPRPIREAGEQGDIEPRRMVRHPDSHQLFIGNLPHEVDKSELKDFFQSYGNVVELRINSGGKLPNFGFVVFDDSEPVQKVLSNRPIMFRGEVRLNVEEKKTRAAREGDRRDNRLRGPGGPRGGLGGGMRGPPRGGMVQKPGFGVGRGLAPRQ
Method: RNA Bind-n-Seq
Form: RNA
Sample: in vitro
Tested at: 1 µM
Setting: whole 134-nt RNA, ends assumed
Added: 150 mM KCl
Baseline: input library
Direction: higher = stronger binding
For `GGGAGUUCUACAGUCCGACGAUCGGGGGUGACCGCCGGAGCGCGGCGUGAGCCCUCCCCCUUGGGAUCCCGCAGCUGACCAGUCGCGCUGACGGACAGACAGACAGACACCGCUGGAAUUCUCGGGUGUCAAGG`, the log2 enrichment was -0.673.
The log2 enrichment of `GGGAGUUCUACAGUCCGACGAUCCCUGUGCUACACAUCGUAUGUACCGAAUCGGGGUUUUUUUGGGGAAAAAGGGGAAAGGGGAAAGUAUUAUGUUACGCCGUUCGGAUCUGCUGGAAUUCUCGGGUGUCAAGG` is reported as 0.158.
With `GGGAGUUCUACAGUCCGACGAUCUCAAGUCCUGUGCUACACAUCGUAUGUACCGAAUCGGGUUUGGGUUUGGGUGGGAAAGUAUUAUGUUACGCCGUUCGGAUCUGCACUUCCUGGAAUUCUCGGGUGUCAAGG` the log2 enrichment was 0.626.
With `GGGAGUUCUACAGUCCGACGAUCCACAGACAACACGCACCCACACAGACACAGAGGGAAGGGGUUGGGAUCGGGACAGGGUGCACAGCAGGGCGGGGUAGGACCCCAGCCCCUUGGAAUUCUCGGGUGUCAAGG` the log2 enrichment was -0.0452.
`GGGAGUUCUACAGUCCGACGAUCUAACUUUACAGGAGGAUCUGAUGGAUAUGGCAGUGGACGUGGAUUUGGGGAUGGCUAUAAUGGGUAUGGAGGAGGACCUGGAGGUGGCAAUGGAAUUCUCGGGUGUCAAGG` gave a log2 enrichment of -0.818.
The log2 enrichment of `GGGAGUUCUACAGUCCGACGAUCGUCCUGUGCUACACAUCGUAUGUACCGAAUCGGCCCCCCGGGCCCCCCGGCCCCCCGGAAAGUAUUAUGUUACGCCGUUCGGAUCUGCACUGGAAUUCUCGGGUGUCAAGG` is reported as -0.295.
`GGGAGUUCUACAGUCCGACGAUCUUUAGCCUGUGGAAUGAUAGCAGUAGGGUCCUGCAAUGGAGAUGUAACUUCCACUAUCCUUCAGACCAUCAUGGAGAAGUCAGAGACUGAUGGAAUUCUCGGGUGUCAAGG` has a log2 enrichment of -0.128.
`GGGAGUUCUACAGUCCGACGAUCUUUGCAGGAUUAAUCACUCCUGAAGAUCGGAAAUAUGGAACAACAAAUCUUCACUUAGAUGUAUCUGAUGCAGCUAAUGUCAUGGUCUAUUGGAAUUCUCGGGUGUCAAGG` gave a log2 enrichment of -0.153.

Study 4
Target: CCNB1, cyclin fold, Cln2 fusion (human)
Method: yeast growth competition, sequencing
Sample: yeast
Setting: strong parent motif
Baseline: not given
Direction: higher = stronger binding
Parent: viral docking peptide; YKVKRRLVFGADD
`YKVKRRLVFGCDD [A11C]`: “normalised enrichment score” 3.7.
Under “normalised enrichment score”, `YKDKRRLVFGADD [V3D]` is recorded as 0.172.
Under “normalised enrichment score”, `YKVKRRLVMGADD [F9M]` is recorded as 0.55.
`YKVKGRLVFGADD [R5G]`: “normalised enrichment score” 0.333.
For `YKVKRRLVFGEDD [A11E]`, “normalised enrichment score” read 4.74.
For `YKVKDRLVFGADD [R5D]`, “normalised enrichment score” read 0.402.
For `YKVKRRSVFGADD [L7S]`, “normalised enrichment score” read 0.582.
`YKVKERLVFGADD [R5E]` — result for “normalised enrichment score”: 0.724.
`YKVKRRLVQGADD [F9Q]` — result for “normalised enrichment score”: 0.549.
`YKVKIRLVFGADD [R5I]` — result for “normalised enrichment score”: 0.884.
`YKVKRRLVFIADD [G10I]` — result for “normalised enrichment score”: 3.25.
`YKVKRRLVHGADD [F9H]` — result for “normalised enrichment score”: 0.179.
`YKVKRRLVSGADD [F9S]` — result for “normalised enrichment score”: 0.143.
Under “normalised enrichment score”, `YKVKRRLSFGADD [V8S]` is recorded as 5.59.
Under “normalised enrichment score”, `YKVPRRLVFGADD [K4P]` is recorded as 1.73.
`YKVKRRLVFGKDD [A11K]`: “normalised enrichment score” 3.3.
`YKVKRRLPFGADD [V8P]` — result for “normalised enrichment score”: 0.272.
For `YKVKRELVFGADD [R6E]`, “normalised enrichment score” read 1.43.

For quick reference, copied from above (study 4):
`YKVKRRLVFGKDD [A11K]`: “normalised enrichment score” 3.3.
For `YKVKRELVFGADD [R6E]`, “normalised enrichment score” read 1.43.
`YKVKGRLVFGADD [R5G]`: “normalised enrichment score” 0.333.
For `YKVKRRSVFGADD [L7S]`, “normalised enrichment score” read 0.582.
`YKVKRRLVFIADD [G10I]` — result for “normalised enrichment score”: 3.25.
